Measured values collected from several papers.
Compare with care: the assays were run in different laboratories.
Target: Tyrosine-protein kinase ABL2 (ABL2, Homo sapiens, UniProt P42684)

| Structure (SMILES) | observed | mode | method | concentration | relative to | quantity | result |
| --- | --- | --- | --- | --- | --- | --- | --- |
| C=CC(=O)Nc1cccc(-c2cnc3[nH]cc(C(=O)NC(C)(C)C)c3n2)c1 | enzyme activity | inhibitor | – | 0.1 µM | – | inhibition | 11% |
| Nc1ncc(-c2cc(-c3cnn(CC(F)(F)F)c3)ncc2F)nc1C(=O)NC1CNCC(F)C1 (stereo not shown) | enzyme activity | – | – | 1 µM | DMSO control | remaining activity | 96.2% |
| Cc1ccc(-c2c(/C=C(\C#N)C(=O)NC(C)C)n(CCCO)c3ncnc(N)c23)cc1 | cell-free assay | – | competition with immobilised ligand | 1 µM | – | remaining binding | 81% |
| CNC1C[S+]2CC[S+]3CC[S+](C1)[Ru-4]321([N]=C=S)[n]2c3ccc(OC)cc3c3c4c(c5cc(F)c[n+]1c5c32)C(=O)NC4=O (stereo not shown) | – | – | KinomeScan | 0.1 µM | untreated | remaining binding | 97% |
| COc1cc(Nc2nc(C)cc(-c3cnn4nc(OC)ccc34)n2)cc(C(F)(F)F)c1 | – | inhibitor | – | 1 µM | control | remaining activity | 76% |
| Cc1cccc(O[C@H]2CCC[C@@H](C(C)CNCc3ccncc3)C2)c1 (relative stereo) | enzyme activity | inhibitor | – | 10 µM | – | inhibition | -8% |
| CN1CCN(Cc2ccc(-c3ccc(CO[C@H]4CCC[C@@H]4NC(=O)c4cc(-c5cnn(C)c5)cnc4N)cc3)cc2)CC1 | enzyme activity | inhibitor | – | 0.1 µM | – | inhibition | 2% |
| NC(=O)C[C@H]1CCc2sc3ncnc(O[C@H]4CC[C@H](N5CCOCC5)CC4)c3c21 | enzyme activity | inhibitor | – | 10 µM | – | inhibition | 5% |
| Cc1cnc2nc1Nc1cccc(c1)COC/C=C/COCc1cc(ccc1OCCN1CCOCC1)N2 | binding | – | – | 0.1 µM | – | remaining binding | 77% |
| COc1c(Cl)cccc1Nc1c(-c2ccncc2C#C[C@@]2(C)CCCN2C(=O)/C=C/CN(C)C)[nH]c2c1C(=O)NCC2 | binding | – | competition with immobilised ligand | 3 µM | – | remaining binding | 82% |
| C[C@H]1CN(C(=O)c2cn(-c3ccnc(N)n3)c3cc(C#CC4(O)CCCCC4)ccc23)CCN1 | enzyme activity | inhibitor | FRET | 1 µM | – | inhibition | -1% |
| CCN1CCN(Cc2ccc(NC(=O)c3ccc(C)c(NC(=O)c4cncc(-c5cccs5)c4)c3)cc2C(F)(F)F)CC1 | binding | – | competition with immobilised ligand | 1 µM | – | remaining binding | 0.1% |
| C=CC(=O)N1CCc2ccc(-n3c(=O)ccc4cnc5ccc(-c6cnn(C)c6)cc5c43)cc21 | – | – | KINOMEscan | 1 µM | DMSO control | remaining binding | 100% |
| CNC(=O)C1CCN(c2cc(C)c(F)cc2NC(=O)c2ccc(-c3cc(O)ccc3C)c(C)c2)CC1 | binding | – | competition with immobilised ligand | 1 µM | – | remaining binding | 16% |
| Nc1ncc2c(n1)-c1c([nH]c3ccc(C4=CCOCC4)cc13)CCC2 | binding | – | competition with immobilised ligand | 1 µM | – | remaining binding | 93% |
| COc1c(OCCCN2CCOCC2)ccc2c1N=C(NC(=O)c1cnc(N)nc1)N1CCN=C21 | kinase activity | inhibitor | – | 1 µM | untreated control | remaining activity | 85% |

Repeated from above:
| Structure (SMILES) | observed | mode | method | concentration | relative to | quantity | result |
| --- | --- | --- | --- | --- | --- | --- | --- |
| Nc1ncc2c(n1)-c1c([nH]c3ccc(C4=CCOCC4)cc13)CCC2 | binding | – | competition with immobilised ligand | 1 µM | – | remaining binding | 93% |
| Cc1ccc(-c2c(/C=C(\C#N)C(=O)NC(C)C)n(CCCO)c3ncnc(N)c23)cc1 | cell-free assay | – | competition with immobilised ligand | 1 µM | – | remaining binding | 81% |
